Assay results gathered from unrelated publications.
Lines come from different studies, so protocols differ. ± gives the spread as reported.
USP5 ZnF-UBD domain: Ubiquitin carboxyl-terminal hydrolase 5, ZnF-UBD domain (USP5, Homo sapiens, UniProt P45974)
Sequence of UniProt P45974 (whole entry, looked up): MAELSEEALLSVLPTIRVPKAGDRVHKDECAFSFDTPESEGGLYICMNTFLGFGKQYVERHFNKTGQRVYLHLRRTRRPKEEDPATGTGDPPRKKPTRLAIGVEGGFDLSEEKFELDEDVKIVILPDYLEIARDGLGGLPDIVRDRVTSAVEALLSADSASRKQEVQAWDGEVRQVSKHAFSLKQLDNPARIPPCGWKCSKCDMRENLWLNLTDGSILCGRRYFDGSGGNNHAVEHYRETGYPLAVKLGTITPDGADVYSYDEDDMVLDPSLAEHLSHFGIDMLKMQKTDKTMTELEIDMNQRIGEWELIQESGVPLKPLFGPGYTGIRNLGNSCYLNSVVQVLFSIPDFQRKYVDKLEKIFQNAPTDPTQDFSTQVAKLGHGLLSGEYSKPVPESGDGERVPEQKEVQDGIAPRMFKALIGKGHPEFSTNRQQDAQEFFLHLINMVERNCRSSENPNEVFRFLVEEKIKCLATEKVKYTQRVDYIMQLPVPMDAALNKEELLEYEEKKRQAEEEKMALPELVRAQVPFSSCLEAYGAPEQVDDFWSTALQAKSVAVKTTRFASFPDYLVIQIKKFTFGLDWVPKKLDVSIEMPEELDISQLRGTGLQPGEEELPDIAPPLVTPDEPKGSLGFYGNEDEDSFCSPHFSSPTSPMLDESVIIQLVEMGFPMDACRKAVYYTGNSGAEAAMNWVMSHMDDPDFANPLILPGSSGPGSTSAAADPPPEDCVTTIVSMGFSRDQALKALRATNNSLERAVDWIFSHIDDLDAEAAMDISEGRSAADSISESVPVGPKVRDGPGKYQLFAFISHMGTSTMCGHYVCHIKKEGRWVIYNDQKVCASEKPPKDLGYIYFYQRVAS
PLAU: Urokinase-type plasminogen activator (PLAU, Homo sapiens, UniProt P00749)
CSNK1A1/CRBN: Cereblon/Casein kinase I alpha (CSNK1A1/CRBN, Homo sapiens, UniProt P48729+Q96SW2)
Sequence of UniProt Q96SW2 (whole entry, looked up): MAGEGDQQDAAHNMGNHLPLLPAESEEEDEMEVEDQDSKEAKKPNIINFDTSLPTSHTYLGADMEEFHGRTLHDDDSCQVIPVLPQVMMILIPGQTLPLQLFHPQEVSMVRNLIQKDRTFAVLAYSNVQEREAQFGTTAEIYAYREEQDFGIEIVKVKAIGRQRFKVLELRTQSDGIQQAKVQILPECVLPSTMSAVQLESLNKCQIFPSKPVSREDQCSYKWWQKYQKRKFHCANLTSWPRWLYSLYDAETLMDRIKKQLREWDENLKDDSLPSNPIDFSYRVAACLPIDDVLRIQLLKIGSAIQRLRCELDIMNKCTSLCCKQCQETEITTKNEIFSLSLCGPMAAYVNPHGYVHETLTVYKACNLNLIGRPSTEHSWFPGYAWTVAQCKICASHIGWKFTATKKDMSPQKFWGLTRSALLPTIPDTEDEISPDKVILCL
Sequence of UniProt P48729 (whole entry, looked up): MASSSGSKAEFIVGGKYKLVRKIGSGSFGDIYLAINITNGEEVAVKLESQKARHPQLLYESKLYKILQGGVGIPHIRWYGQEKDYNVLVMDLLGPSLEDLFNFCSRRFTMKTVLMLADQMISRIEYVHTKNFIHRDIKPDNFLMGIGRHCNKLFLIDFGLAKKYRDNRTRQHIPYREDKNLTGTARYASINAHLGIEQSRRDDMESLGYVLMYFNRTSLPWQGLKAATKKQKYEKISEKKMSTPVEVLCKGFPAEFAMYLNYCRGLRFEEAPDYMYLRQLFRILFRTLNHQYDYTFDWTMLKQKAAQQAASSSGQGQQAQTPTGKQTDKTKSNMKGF
Tumor necrosis factor receptor superfamily member 1A extracellular domain: Tumor necrosis factor receptor superfamily member 1A, extracellular domain (Homo sapiens, UniProt P19438)
Sequence of UniProt P19438 (whole entry, looked up): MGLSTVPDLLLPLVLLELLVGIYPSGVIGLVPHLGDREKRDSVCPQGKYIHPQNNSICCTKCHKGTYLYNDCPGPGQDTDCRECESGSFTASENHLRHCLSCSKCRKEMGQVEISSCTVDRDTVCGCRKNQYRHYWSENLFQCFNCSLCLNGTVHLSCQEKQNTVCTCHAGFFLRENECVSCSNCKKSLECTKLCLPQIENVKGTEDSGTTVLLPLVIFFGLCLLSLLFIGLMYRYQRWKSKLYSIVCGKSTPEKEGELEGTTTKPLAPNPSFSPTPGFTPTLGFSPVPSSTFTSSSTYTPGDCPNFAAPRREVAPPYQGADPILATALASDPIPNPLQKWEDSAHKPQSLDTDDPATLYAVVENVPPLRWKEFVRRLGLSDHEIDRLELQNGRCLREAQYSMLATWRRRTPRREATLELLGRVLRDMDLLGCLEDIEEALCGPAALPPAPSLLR
HDAC11: Histone deacetylase 11 (HDAC11, Homo sapiens, UniProt Q96DB2)
Sequence of UniProt Q96DB2 (whole entry, looked up): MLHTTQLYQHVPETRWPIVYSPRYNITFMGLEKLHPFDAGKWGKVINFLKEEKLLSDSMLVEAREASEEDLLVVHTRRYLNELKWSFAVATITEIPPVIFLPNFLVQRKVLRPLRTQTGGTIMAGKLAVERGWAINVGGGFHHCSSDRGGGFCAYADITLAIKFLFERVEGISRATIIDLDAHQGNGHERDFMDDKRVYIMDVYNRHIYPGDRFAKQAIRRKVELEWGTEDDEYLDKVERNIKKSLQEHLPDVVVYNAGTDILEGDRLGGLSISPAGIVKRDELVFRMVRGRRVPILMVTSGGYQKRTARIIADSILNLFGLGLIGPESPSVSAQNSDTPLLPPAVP
GSPT1/CRBN with cereblon: GSPT1/CRBN, with cereblon (Homo sapiens, UniProt P15170+Q96SW2)
Sequence of UniProt P15170 (whole entry, looked up): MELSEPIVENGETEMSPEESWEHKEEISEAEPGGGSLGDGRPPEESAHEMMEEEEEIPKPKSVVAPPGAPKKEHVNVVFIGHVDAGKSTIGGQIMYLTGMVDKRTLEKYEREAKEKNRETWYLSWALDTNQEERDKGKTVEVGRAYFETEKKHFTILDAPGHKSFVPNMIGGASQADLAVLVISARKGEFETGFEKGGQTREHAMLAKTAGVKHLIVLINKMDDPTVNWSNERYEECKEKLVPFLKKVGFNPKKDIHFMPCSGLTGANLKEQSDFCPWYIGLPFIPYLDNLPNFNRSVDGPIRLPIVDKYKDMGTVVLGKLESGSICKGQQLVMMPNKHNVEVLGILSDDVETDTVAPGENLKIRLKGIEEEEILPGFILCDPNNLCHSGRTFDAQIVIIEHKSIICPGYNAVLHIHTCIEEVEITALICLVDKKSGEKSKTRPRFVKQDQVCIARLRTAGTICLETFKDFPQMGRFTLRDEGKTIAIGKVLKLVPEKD
GATD3: Glutamine amidotransferase-like class 1 domain-containing protein 3, mitochondrial (GATD3, Homo sapiens, UniProt P0DPI2)
Sequence of UniProt P0DPI2 (whole entry, looked up): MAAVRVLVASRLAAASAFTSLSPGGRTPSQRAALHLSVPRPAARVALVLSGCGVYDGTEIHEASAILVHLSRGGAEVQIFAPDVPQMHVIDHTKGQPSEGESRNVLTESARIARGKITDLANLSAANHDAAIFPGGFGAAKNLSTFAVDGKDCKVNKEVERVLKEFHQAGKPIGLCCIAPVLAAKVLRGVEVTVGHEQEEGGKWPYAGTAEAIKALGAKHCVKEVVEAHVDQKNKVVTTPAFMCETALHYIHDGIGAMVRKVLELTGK
Sequence of UniProt Q07817 (whole entry, looked up): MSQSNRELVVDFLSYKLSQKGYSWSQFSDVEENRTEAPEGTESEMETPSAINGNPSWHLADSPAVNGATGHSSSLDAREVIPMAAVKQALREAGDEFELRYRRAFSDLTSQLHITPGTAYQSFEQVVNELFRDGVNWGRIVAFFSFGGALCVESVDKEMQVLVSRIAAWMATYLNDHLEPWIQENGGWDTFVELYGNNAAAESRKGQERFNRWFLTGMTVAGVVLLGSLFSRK
Sequence of UniProt P05177 (whole entry, looked up): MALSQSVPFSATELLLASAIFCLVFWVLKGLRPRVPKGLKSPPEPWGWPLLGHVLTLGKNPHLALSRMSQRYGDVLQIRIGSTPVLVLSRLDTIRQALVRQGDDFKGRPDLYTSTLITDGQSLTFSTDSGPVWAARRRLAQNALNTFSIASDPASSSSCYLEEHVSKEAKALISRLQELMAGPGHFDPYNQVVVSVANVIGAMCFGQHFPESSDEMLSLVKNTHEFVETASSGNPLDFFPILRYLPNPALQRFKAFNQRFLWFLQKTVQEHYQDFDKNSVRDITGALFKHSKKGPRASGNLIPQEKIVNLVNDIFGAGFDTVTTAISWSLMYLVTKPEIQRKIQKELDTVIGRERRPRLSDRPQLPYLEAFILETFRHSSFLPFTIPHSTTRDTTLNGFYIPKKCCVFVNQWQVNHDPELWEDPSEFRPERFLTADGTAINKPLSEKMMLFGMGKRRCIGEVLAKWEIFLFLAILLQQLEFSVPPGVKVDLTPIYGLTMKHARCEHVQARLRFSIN
Sequence of UniProt P49761 (whole entry, looked up): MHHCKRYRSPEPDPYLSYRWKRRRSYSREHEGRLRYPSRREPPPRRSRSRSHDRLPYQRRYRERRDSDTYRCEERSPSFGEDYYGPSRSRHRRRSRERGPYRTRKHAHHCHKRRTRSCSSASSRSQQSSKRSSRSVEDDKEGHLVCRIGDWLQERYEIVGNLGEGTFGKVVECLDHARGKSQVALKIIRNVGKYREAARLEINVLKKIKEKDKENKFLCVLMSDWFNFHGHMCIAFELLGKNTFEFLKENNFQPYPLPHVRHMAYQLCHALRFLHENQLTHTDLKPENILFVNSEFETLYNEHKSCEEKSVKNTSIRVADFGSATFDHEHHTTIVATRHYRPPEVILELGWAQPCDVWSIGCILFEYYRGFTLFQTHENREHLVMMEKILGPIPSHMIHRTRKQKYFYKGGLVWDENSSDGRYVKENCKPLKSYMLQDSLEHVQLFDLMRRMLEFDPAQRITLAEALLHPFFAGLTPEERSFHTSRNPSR
Sequence of UniProt P30994 (whole entry, looked up): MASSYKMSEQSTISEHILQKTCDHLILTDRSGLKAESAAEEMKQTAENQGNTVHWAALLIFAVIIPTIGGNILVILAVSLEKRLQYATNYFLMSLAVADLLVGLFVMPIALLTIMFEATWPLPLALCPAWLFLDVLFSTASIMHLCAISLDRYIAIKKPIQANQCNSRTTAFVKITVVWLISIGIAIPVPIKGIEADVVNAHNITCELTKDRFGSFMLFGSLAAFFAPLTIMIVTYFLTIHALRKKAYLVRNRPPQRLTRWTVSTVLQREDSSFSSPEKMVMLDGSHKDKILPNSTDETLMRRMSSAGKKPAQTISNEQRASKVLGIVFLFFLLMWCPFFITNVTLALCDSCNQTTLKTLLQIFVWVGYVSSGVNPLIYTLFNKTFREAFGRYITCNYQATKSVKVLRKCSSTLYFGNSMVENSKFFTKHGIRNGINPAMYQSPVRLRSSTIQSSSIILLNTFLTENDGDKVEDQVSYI

SMILES	target or system	assay	system	setting	how to read	measurement	result
COc1cc(/C=N/n2c(C)nc3ccc(C)cc3c2=O)ccc1OCc1ccccc1	collagenase	enzyme activity, inhibitor		with: casein substrate		IC50	53.5 ± 3.07 µg/mL
O=C(O)CNC(=O)c1ccc(S(=O)(=O)N2CCC(n3c(=O)oc4ccccc43)CC2)cc1	USP5 ZnF-UBD domain					Kd	127 µM
Cc1ncsc1-c1ccc([C@H](C)NC(=O)[C@@H]2C[C@@H](O)CN2C(=O)[C@@H](NC(=O)CCCCCCCS(=O)(=O)NC(=O)c2nc(N3CCc4cccc(C(=O)Nc5nc6ccccc6s5)c4C3)ccc2-c2cnn(CC34CC5CC(CC(C5)C3)C4)c2C)C(C)(C)C)cc1	BCL2L1 (Homo sapiens, UniProt Q07817)	degrader, western blot	MOLT-4	16 h		DC50	0.00043 µM
OC[C@H]1N/C(=N\CC2CCCCC2)[C@H](O)[C@@H](O)[C@H]1O	β-glucosidase sweet almond	enzyme activity, inhibitor		pH 5.00		Ki	0.0492 ± 0.0099 µM
N#C[C@@]12C[C@@H]1[C@@H](n1cnc3c(NC4CCCC4)nc(I)nc31)[C@H](O)[C@@H]2O	5-hydroxytryptamine receptor 2B (Rattus norvegicus, UniProt P30994)	antagonist, Gq dissociation BRET		rat receptor		Kb	0.0672 µM
COc1cc(/C=N/n2c(C)nc3ccc(Br)cc3c2=O)ccc1OCc1ccc(Cl)cc1	collagenase	enzyme activity, inhibitor		with: casein substrate		IC50	32.5 ± 2.12 µg/mL
Nc1cnc2ccccc2n1	PLAU	inhibitor		pH 7.4		Ki	> 50 µM
NCc1cc2c(cc1F)C(=O)N(C1CCC(=O)NC1=O)C2 (centres unmarked)	CSNK1A1/CRBN	degrader, Western blot	Hep3B	6 h		DC50	> 1 µM
O=C(O)COc1cnc2ccccc2n1	USP5 ZnF-UBD domain					Kd	> 1000 µM
CN(CC#N)C(=O)c1ccc2ccc(N)nc2c1	PLAU	inhibitor		pH 7.4		Ki	> 100 µM
COc1ccc(OC)c(-c2ccc(C(=O)O)nc2)c1	Tumor necrosis factor receptor superfamily member 1A extracellular domain	SPR OneStep		immobilized target		Kd	1400 ± 50 µM
CC[C@@H]1[C@H](F)C(=O)N[C@@H]1COc1nccc2cc(C(N)=O)c(OC)cc12	CLK3 (Homo sapiens, UniProt P49761)	kinase activity, inhibitor, ActivX ATP-site probe profiling	THP-1 cell lysate	ATP loop site		IC50	> 5 µM
CS(=O)(=O)NC(=O)c1cc(-c2ccc3[nH]ccc3c2)ccn1	Tumor necrosis factor receptor superfamily member 1A extracellular domain	binding, SPR OneStep				Kd	502 ± 60 µM
CC(C)c1ccc(OS(=O)(=O)Oc2cccc(C(=O)NO)c2)cc1	HDAC11					Ki	0.592 µM
Cc1cccc(C(=O)Nc2ccc3c(c2)CN(C2CCC(=O)NC2=O)C3=O)c1 (centres unmarked)	GSPT1/CRBN with cereblon	degrader, HiBiT endpoint	HEK293 GSPT1-HiBiT	24 h		DC50	> 10 µM
O=c1nc(N2CCN(CC3CCCCC3)CC2)sc2c([N+](=O)[O-])cc(C(F)(F)F)cc12	Cytochrome P450 1A2 (CYP1A2, Homo sapiens, UniProt P05177)			pH 7.4		IC50	> 10 µM
CCc1ccc(/C=N/n2c(C)nc3ccc(C)cc3c2=O)s1	collagenase	enzyme activity, inhibitor		with: casein substrate		IC50	47.7 ± 1.59 µg/mL
Cc1ccccc1C(=O)Nc1ccc2c(c1)CN(C1CCC(=O)NC1=O)C2=O (centres unmarked)	GSPT1/CRBN with cereblon	degrader, HiBiT endpoint	HEK293 GSPT1-HiBiT	24 h		DC50	> 10 µM
O=C(O)CCc1ccc2c(c1)OCO2	USP5 ZnF-UBD domain					Kd	> 1000 µM
O=C(CCCCCN1C(=O)c2cccc3cccc(c23)C1=O)NO	GATD3	inhibitor, competition pulldown	SW620 and MV4-11 lysate	1 h		Kd	23.3 µM
N=C(N)c1ccc2cc(C#Cc3cccc(OC4CCCC4)c3)ccc2c1	PLAU	inhibitor		pH 7.4		Ki	0.665 µM

SMILES	target or system	assay	system	setting	how to read	measurement	result
Cn1cc(-c2ccc(-c3cncc(Cl)c3N3CCC4(CCNC4=O)CC3)cc2)cn1	COLO 205	microarray, item: SPIB		concentration not given, 6 h, gene set SPI-B	reference: untreated cells	fold change in expression	-3.55
O=C1CCC(N2Cc3cc(Nc4nc5ccccc5o4)ccc3C2=O)C(=O)N1 (centres unmarked)	GSPT1/CRBN with cereblon	degrader, HiBiT endpoint	HEK293 GSPT1-HiBiT	24 h		DC50	> 10 µM
N#CC(CCOc1cccc2ccc(N)nc12)(c1ccccc1)c1ccccc1	PLAU	inhibitor		pH 7.4		Ki	> 40 µM
N#Cc1c2n(c3c(=O)n(CC(=O)O)cnc13)CCCC2	USP5 ZnF-UBD domain					Kd	207 µM
CCOc1cc(OCC)c(OCC)cc1/C=C/c1cc(Br)c2cc(C(=N)N)ccc2c1	PLAU	inhibitor		pH 7.4		Ki	0.777 µM
Cc1c(OS(=O)(=O)Oc2cccc(C(C)C)c2)cccc1C(=O)NO	HDAC11					Ki	0.714 µM
CN1CCc2c(c3ccccc3n2Cc2ccc(C(=O)NO)cc2)C1	GATD3	inhibitor, competition pulldown	SW620 and MV4-11 lysate	1 h		Kd	> 30.2 µM
Cc1cc(OS(=O)(=O)Oc2ccc(C(C)(C)C)cc2)cc(C(=O)NO)c1	HDAC11					Ki	1.38 µM
Cc1ccc(C(=O)Nc2ccc3c(c2)CN(C2CCC(=O)NC2=O)C3=O)cc1 (centres unmarked)	GSPT1/CRBN with cereblon	degrader, HiBiT endpoint	HEK293 GSPT1-HiBiT	24 h		DC50	> 10 µM
Cc1nc2ccccc2c(=O)n1NC(=O)CSc1nc2ccccc2c(=O)n1-c1ccccc1	collagenase	enzyme activity, inhibitor		with: casein substrate		IC50	28.5 ± 2.12 µg/mL
Cn1nc(Nc2ccc3c(c2)CN(C2CCC(=O)NC2=O)C3=O)c2ccccc21 (centres unmarked)	CSNK1A1/CRBN	degrader, HiBiT endpoint	human cells	24 h		DC50	0.004 µM
O=C(O)CCc1cnccn1	USP5 ZnF-UBD domain					Kd	> 1000 µM
O=C(CCCCCCNC(=O)c1cnc(N(c2ccccc2)c2ccccc2)nc1)NO	GATD3	inhibitor, competition pulldown	SW620 and MV4-11 lysate	1 h		Kd	8.55 µM
O=C(O)c1ccc(-c2ccc(F)cc2)cn1	Tumor necrosis factor receptor superfamily member 1A extracellular domain	binding, SPR OneStep injection		fragment screen		Kd	≤ 1500 µM
O=C(O)CNc1ncnc2ccccc12	USP5 ZnF-UBD domain					Kd	> 1000 µM
COc1ccc2cc(/C=N/n3c(C)nc4ccc(Br)cc4c3=O)ccc2c1	collagenase	enzyme activity, inhibitor		with: casein substrate		IC50	43.6 ± 3.01 µg/mL
Cc1ccc(C(=O)O)cc1S(=O)(=O)Nc1cccc(C(=O)CCC(=O)O)c1	USP5 ZnF-UBD domain					Kd	> 1000 µM
N=C(N)NC(=O)c1ccc(Cl)c(S(N)(=O)=O)c1	PLAU	inhibitor		pH 7.4		Ki	> 100 µM
O=C(O)CCC(=O)N1CCc2ccccc21	USP5 ZnF-UBD domain					Kd	> 1000 µM
O=C1CCC(N2Cc3cc(Nc4noc5ccccc45)ccc3C2=O)C(=O)N1 (centres unmarked)	GSPT1/CRBN with cereblon	degrader, HiBiT endpoint	HEK293 GSPT1-HiBiT	24 h		DC50	> 10 µM

Excerpt of the above:
SMILES	target or system	assay	system	setting	how to read	measurement	result
O=C(O)CCc1ccc2c(c1)OCO2	USP5 ZnF-UBD domain					Kd	> 1000 µM
CN1CCc2c(c3ccccc3n2Cc2ccc(C(=O)NO)cc2)C1	GATD3	inhibitor, competition pulldown	SW620 and MV4-11 lysate	1 h		Kd	> 30.2 µM
O=C(O)c1ccc(-c2ccc(F)cc2)cn1	Tumor necrosis factor receptor superfamily member 1A extracellular domain	binding, SPR OneStep injection		fragment screen		Kd	≤ 1500 µM
Cc1ccc(C(=O)Nc2ccc3c(c2)CN(C2CCC(=O)NC2=O)C3=O)cc1 (centres unmarked)	GSPT1/CRBN with cereblon	degrader, HiBiT endpoint	HEK293 GSPT1-HiBiT	24 h		DC50	> 10 µM
OC[C@H]1N/C(=N\CC2CCCCC2)[C@H](O)[C@@H](O)[C@H]1O	β-glucosidase sweet almond	enzyme activity, inhibitor		pH 5.00		Ki	0.0492 ± 0.0099 µM
N#C[C@@]12C[C@@H]1[C@@H](n1cnc3c(NC4CCCC4)nc(I)nc31)[C@H](O)[C@@H]2O	5-hydroxytryptamine receptor 2B (Rattus norvegicus, UniProt P30994)	antagonist, Gq dissociation BRET		rat receptor		Kb	0.0672 µM
